Measurements collected from several papers.
A part holds a random share of what one study measured. Positions count from the first letter of the parent shown.

Sample 1
Target: Interferon regulatory factor 3, full length, phosphomimetic (IRF3, Homo sapiens, UniProt Q14653, residues 1-427, S386D/S396D/S398D/S402D/T404D/S405D)
Chain of UniProt Q14653 (whole entry, unmodified, looked up): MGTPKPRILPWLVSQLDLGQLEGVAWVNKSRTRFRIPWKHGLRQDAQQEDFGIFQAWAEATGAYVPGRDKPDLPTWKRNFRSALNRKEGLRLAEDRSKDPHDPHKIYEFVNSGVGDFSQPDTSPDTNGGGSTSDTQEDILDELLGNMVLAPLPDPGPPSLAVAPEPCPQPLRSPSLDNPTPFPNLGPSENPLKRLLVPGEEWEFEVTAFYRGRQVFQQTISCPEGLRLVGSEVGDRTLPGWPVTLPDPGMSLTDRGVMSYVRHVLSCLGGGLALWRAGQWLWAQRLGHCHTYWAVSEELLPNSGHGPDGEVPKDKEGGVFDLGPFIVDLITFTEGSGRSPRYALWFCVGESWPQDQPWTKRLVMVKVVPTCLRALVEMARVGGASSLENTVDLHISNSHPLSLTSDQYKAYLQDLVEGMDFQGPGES
Technique: protein-binding microarray
Form: double-stranded DNA, one strand shown
Matrix: in vitro
Concentration: 2540 nM top
Notes: 60-bp whole probe
Together with: salmon DNA 0.4 mg/ml
Relative to: random background probes
Direction: higher = stronger binding
Constant ends, left off below: GCCTAGCAC … GTCTTGATTCGCTTGACGCTGCTG
Sequence	fitted relative affinity
TCATCAATCATTTTAGTACTGTGCTAG	0.547 z-score
TTAGGACTGGACTATCGGTTTGTGCTA	0.0869 z-score
TTAGGATCCGGTTTCGGTTAGTGCTAG	6.27 z-score
GACGCTTTCAGTTCCGAGACGTGCTAG	3.23 z-score
TTAGATTTCAGATCCGATTAGTGCTAG	2.85 z-score
TCAGGTTAAAATTTTGCACTGTGCTAG	0.1 z-score
GACGGTTTGGGTTCCGGGACGTGCTAG	0.661 z-score
TTAGACTTCGGGTATCGATTAGTGCTA	-0.295 z-score
TTAGGACTGGAGTATCGGTTAGTGCTA	0.457 z-score
CACGATTTCAGTTTCGAGACGTGCTAG	4.28 z-score
TTAGGACTGCATCTCCTTTAGTGCTAG	-0.175 z-score
ATAGGTATCGGTTTCGGTTAGTGCTAG	8.8 z-score
GACGGTATCGGACTGGGCACGTGCTAG	1.49 z-score
CATTTTATGGTATTTTTTTCGTGCTAG	2.4 z-score
TTTTTTTTTTTTTTTGTATTGTGCTAG	1.58 z-score
GCAGTTGTCGTTCAAGGCTGGTGCTAG	0.762 z-score
ATAAAAATCTTTGTTGGAGGGGTGCTA	-0.564 z-score

Sample 2
Target: Ras GTPase-activating protein-binding protein 1, full length (G3BP1, Homo sapiens, UniProt Q13283)
Chain of UniProt Q13283 (whole entry, looked up): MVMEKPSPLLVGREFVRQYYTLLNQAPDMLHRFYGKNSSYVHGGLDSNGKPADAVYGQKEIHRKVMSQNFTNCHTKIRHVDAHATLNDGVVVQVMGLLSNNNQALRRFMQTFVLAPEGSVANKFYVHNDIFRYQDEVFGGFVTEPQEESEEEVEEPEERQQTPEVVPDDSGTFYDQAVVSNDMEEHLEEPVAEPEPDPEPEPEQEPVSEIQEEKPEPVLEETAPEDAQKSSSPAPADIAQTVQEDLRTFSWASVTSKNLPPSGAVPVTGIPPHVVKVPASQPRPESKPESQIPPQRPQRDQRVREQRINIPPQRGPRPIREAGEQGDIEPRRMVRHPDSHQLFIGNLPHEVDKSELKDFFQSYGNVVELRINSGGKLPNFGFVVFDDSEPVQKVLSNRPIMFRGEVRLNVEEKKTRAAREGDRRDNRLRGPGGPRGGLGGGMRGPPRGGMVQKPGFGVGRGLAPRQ
Technique: RNA Bind-n-Seq
Form: RNA
Matrix: in vitro
Concentration: 200 nM
Notes: whole 134-nt RNA, ends assumed
Together with: 150 mM LiCl
Relative to: input library
Direction: higher = stronger binding
All molecules: 7-deaza-guanosine replaces G
Constant ends, left off below: GGGAGUUCUACAGUCCGACGAUC … UGGAAUUCUCGGGUGUCAAGG
Sequence	log2 enrichment
UCAGGUCCUUAAGUACCUUCGUAUUACUUUUAGCAGGAAAAACGGCAUGUUUUGCAUCUGGUGUGCAAUGUGAAGAGUCCUUCAAAAAUG	-0.757
ACCAUGCAGGUGGGCAUCUAUGGGAAGUGGGGCAAGGGGGGGAUAGGGAGGGGGGUAACACUUUGGGAACAGGUGGUCCCAGGUCGUUUC	0.147
UUAGAAGAAGAAGAUGGAGUGUGGGAGAAUGGACUUUCCUAUGAAUGCCGUACUCUGCUUUUCAAAGCAGUUCACAAUCUAUUGGAACGG	-2.69
UAACUUUAGAGGAGGAUCUGAUGGAUAUGGCAGUGGAUGUGGAUUUGGGGAUGGCUAUAAUGGGUAUGGAGGAGGACCUGGAGGUGGCAA	0.354
GUCCUGUGCUACACAUCGUAUGUACCGAAUCGGGGUUUGGGGAAAAAAAGGGGUGGGGAAAGUAUUAUGUUACGCCGUUCGGAUCUGCAC	-1.36
AGUCCUGUGCUACACAUCGUAUGUACCGAAUCGGGGUGGGGUUUUUUUGGGGUGGGGAAAGUAUUAUGUUACGCCGUUCGGAUCUGCACU	0.449
UGUGCUACACAUCGUAUGUACCGAAUCGGGGCCCCCCCGGGCCCCCCCGGGGCCCCCCCGGGAAAGUAUUAUGUUACGCCGUUCGGAUCU	-0.286
CCUCAAGUCCUGUGCUACACAUCGUAUGUACCGAAUCGGCGGGGCGGGGCGGGAAAGUAUUAUGUUACGCCGUUCGGAUCUGCACUUCCA	-0.2
CCUGUGCUACACAUCGUAUGUACCGAAUCGGAAAAAAAGGGGAAAAAAAGGGAAAAAAAGGAAAGUAUUAUGUUACGCCGUUCGGAUCUG	0.0545
AAGUCCUGUGCUACACAUCGUAUGUACCGAAUCGGUUUUUGGAAAAAAAGGUUUGGAAAGUAUUAUGUUACGCCGUUCGGAUCUGCACUU	-3.42
AAGUCCUGUGCUACACAUCGUAUGUACCGAAUCAAACCCCCAAAUUUAAAUUUAAAAAAGUAUUAUGUUACGCCGUUCGGAUCUGCACUU	0.988

Sample 3
Target: CCNB2, cyclin fold, Cln2 fusion (human)
Technique: yeast growth competition, sequencing
Matrix: yeast
Notes: weak parent motif
Relative to: not given
Direction: higher = stronger binding
Parent: SLBP docking peptide (human); ARYKRKLLINDFG
Variant	normalised enrichment score
R5P	0.48
D11T	0.86
D11S	0.402
N10C	0.235
K4V	0.632
D11K	0.347
Y3T	0.548
I9R	0.869
K4T	0.377
N10D	0.413
F12M	0.228
Y3H	0.281
I9N	0.581

Sample 4
Target: Histone acetyltransferase KAT6A, both winged helices, GST fusion (KAT6A, Homo sapiens, UniProt Q92794, residues 1-181)
Technique: protein binding microarray
Form: double-stranded DNA, one strand shown
Matrix: in vitro
Concentration: not given
Notes: 8-mer, flanks averaged, mean of 2 arrays, mostly near background
Relative to: not given
Direction: higher = stronger binding
Target sequence (chain): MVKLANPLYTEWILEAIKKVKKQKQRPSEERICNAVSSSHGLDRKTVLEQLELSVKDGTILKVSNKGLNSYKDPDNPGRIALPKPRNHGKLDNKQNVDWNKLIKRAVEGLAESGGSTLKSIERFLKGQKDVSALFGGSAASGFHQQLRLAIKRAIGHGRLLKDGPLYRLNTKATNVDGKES
Sequence	E-score
CGTATCGA	0.0283
AGAATTCG	-0.0897
CCGGCATA	0.292
ACAGCGAC	0.126
GTCCAAAA	0.0125
CCACTTAA	-0.133
AAACAATT	0.0362
ACAAAGAA	-0.112
CTTGCTCC	-0.217
GTTCATCA	-0.0362
CCAGTCAA	-0.167
CAGAGCTG	-0.109
CCCAGGGC	-0.0267
ACACTGCA	-0.152
AACATGCT	-0.0294
AGGGTCAC	-0.0919
ATTTGAAA	0.0355

Sample 5
Target: RING finger protein unkempt homolog, zinc fingers 1-6, GST-SBP tag (UNK, Homo sapiens, UniProt Q9C0B0, residues 30-357)
Chain of UniProt Q9C0B0 (30-357, looked up): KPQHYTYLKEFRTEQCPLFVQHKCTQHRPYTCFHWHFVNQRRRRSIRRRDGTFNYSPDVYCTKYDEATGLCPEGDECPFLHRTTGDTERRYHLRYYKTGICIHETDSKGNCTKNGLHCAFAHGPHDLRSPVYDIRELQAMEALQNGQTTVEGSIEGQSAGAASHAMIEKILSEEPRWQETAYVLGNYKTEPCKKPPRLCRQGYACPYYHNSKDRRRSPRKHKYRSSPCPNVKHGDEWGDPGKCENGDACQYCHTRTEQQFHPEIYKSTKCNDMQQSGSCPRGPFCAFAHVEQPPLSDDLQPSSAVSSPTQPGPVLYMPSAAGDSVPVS
Technique: RNA Bind-n-Seq
Form: RNA
Matrix: in vitro
Concentration: not given
Notes: RNA with constant flanks, human and mouse sites, ends assumed
Relative to: input RNA pool
Direction: higher = stronger binding
Constant ends, left off below: GGGAGUUCUACAGUCCGACGAUC … CAACAGAGGAUUGAGCAUCA
Sequence	bound/input enrichment [ratio]
CUCCAGACACAAGUGGCUGAGAUGUCCCGAGUCAUACGUGAUCUGCAGUCCAGGAGUUGUUUUAGAUUUCAUCAUUCUAGGCCAAGUGAGAGCUCGUCAGUUCCUUGGGAUAUCUCCAGC	0.467
AUUGAGAAAUAAUACUAUCUUCUACGUUACUUGUGUAAAAGGUGUGUCUGAUUGGACUUGUUUAGAAUUCCUUUUAAAACUAACUCAUUAGAUUGAAGGUAUAUUUUCUAAUUACAGUUC	0.782
UUCCGAAGCACUCCCAUUUGUCUCGUCCCGGCCUGGCCAGAUAUUUCCUCUGAAUUUUUUUUUUUUUUUUCAUUAAAAGACACCCAUGUGCGAUGAAACUUUCUAAAAAUCUGUCCUGUG	0.394
AGGGUGAUUUAUGAUGAGAAGAAAGGCACCGUGUACAGCUACUCCUAUUUCCACUUCGUCUUCUUCCUGGCUUCCCUCUACGUGAUGAUGACUCUGACCAGCUGGUUCCACUAUGAAAAU	0.312
CAGCGCGUGGGACGAAUUCAUACCAGUGUGCACUGCAAGCUGAGGUAUGGGCUUUUGGCCGCCAUUCUUGGUGAUAAGACAACCAAAAAGCUGCAUGAGUACAGCCGAGUGAUAACAGUA	0.15
CCAGCCUCGAUGACCUACGAUGACAUUCCGCACCUCUCAGCCAAGAUCAAGCCCAAGCAGCAGAAGGUAGAGCUUGAGAUGGCCAUCGACACCCUGAACCCCAACUAUUGCCGCAGCAAA	0.194
GUCAUCGAUGCAGGAGUCUGCAGGAGGCUUGUGGAACUUCUGAUGCAUAAUGACUAUAAAGUAGUUUCUCCUGCUUUGCGGGCUGUGGGAAACAUUGUCACAGGGGAUGAUAUUCAGACA	0.222

Repeated from above (sample 3):
Variant	normalised enrichment score
N10D	0.413
D11T	0.86
K4T	0.377
Y3H	0.281
I9R	0.869
N10C	0.235
I9N	0.581
